Measurements collected from several papers.
Lines come from different studies, so protocols differ.
Matrix protein 2: Matrix protein 2 (Influenza A virus, UniProt P0DOF5)
Sequence of UniProt P0DOF5 (whole entry, looked up): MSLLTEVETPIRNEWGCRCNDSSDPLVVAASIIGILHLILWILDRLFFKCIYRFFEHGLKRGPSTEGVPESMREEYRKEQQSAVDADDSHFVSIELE
1-deoxy-D-xylulose-5-phosphate synthase: 1-deoxy-D-xylulose-5-phosphate synthase (Mycobacterium tuberculosis, UniProt P9WNS3)
Sequence of UniProt P9WNS3 (whole entry, looked up): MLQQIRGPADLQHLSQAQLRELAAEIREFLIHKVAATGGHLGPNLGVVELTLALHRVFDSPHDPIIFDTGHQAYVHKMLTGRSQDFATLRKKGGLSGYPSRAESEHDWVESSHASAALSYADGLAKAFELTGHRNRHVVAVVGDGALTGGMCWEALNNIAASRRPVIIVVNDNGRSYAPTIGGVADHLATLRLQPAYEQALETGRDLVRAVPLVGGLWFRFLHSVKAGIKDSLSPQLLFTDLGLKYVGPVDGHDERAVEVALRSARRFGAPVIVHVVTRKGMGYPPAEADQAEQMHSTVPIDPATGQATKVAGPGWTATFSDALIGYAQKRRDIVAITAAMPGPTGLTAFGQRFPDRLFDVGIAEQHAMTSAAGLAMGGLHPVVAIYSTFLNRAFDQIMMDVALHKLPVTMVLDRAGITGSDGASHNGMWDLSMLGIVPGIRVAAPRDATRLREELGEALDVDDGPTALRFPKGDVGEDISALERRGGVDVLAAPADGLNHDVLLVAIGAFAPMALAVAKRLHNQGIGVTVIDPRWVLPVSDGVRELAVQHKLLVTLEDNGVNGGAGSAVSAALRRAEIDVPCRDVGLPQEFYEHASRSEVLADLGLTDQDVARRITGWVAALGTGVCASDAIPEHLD
lasR: Transcriptional activator protein LasR (lasR, Pseudomonas aeruginosa, UniProt P25084)
Sequence of UniProt P25084 (whole entry, looked up): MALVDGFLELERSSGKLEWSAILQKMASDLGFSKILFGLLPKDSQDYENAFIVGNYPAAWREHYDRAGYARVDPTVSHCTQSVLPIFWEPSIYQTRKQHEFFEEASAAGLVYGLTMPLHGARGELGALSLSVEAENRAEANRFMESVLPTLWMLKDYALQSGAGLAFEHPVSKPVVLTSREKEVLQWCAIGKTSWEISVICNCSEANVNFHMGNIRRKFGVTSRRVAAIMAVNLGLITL
Sequence of UniProt P9WIB9 (whole entry, looked up): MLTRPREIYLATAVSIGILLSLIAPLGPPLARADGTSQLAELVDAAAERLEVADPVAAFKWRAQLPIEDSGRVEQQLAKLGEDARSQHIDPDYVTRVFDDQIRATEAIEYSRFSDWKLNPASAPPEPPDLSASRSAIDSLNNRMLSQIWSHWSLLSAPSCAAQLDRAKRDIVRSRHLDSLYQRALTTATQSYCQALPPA
Sequence of UniProt O60656 (whole entry, looked up): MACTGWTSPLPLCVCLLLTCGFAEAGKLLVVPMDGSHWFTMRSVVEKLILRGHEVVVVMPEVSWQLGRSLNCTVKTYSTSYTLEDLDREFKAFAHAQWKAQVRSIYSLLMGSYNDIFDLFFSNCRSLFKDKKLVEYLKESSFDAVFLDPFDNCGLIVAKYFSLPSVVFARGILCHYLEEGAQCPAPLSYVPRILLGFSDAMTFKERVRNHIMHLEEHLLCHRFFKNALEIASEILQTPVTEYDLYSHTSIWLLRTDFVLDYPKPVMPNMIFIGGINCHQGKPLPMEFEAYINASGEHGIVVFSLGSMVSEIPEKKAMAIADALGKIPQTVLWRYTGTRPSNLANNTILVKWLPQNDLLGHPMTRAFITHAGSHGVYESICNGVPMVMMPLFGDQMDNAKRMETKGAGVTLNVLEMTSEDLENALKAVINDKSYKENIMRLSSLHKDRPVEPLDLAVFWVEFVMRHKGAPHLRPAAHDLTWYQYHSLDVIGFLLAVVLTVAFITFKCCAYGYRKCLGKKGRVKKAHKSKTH
Sequence of UniProt P9WGM7 (whole entry, looked up): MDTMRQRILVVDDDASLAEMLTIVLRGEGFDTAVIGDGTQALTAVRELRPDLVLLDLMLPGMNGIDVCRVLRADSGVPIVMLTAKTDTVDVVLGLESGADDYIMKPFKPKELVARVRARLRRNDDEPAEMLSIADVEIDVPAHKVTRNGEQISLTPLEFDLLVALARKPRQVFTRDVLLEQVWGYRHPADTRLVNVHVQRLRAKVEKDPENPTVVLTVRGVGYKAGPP
Sequence of UniProt P68400 (whole entry, looked up): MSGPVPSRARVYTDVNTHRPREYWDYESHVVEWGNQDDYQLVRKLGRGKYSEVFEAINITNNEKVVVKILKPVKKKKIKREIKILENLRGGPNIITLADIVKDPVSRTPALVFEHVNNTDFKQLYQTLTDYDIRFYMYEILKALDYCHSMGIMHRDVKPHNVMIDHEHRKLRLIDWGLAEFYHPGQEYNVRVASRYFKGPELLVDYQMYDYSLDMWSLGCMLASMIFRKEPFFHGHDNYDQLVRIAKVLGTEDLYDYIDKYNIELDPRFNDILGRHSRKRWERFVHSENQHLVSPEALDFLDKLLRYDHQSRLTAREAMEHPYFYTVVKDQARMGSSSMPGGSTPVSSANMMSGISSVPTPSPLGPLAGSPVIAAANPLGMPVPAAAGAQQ

Brc1csc(CNC23CC4CC(CC(C4)C2)C3)c1  inhibition (Matrix protein 2; ion current, two-electrode voltage clamp; 100 µM): 58%
O=C(CSc1nc2ccccc2[nH]1)N/N=C/c1cc2c(s1)CCCC2  inhibition (1-deoxy-D-xylulose-5-phosphate synthase; enzyme activity, inhibitor; 120 µM): 44%
CCC1(CC)C2CC3CC(C2)CC1(NC)C3  inhibition (Matrix protein 2; enzyme activity, inhibitor; 100 µM, pH 5.5): 15%
CCc1ccc(CNC23CC4CC(CC(C4)C2)C3)s1  inhibition (Matrix protein 2; ion current, two-electrode voltage clamp; 100 µM): 48%
CN1CC23C4CCC5C4C4C2CCC4C53C1  inhibition (Matrix protein 2; enzyme activity, inhibitor; 100 µM, pH 5.5): 4.1%
O=C1c2ccccc2-c2c1c1c(O)cc(-c3ccccc3)cc1n2Cc1ccccc1  inhibition (Casein kinase II subunit alpha, with CK2 beta subunit (CSNK2A1, Homo sapiens, UniProt P68400); 10 µM): 48%
Nc1ncc(/C=N/NC(=O)Cc2c[nH]c3ccccc23)cn1  inhibition (1-deoxy-D-xylulose-5-phosphate synthase; enzyme activity, inhibitor; 200 µM): 47%
Cc1ccc(CNC23CC4CC(CC(C4)C2)C3)s1  inhibition (Matrix protein 2; ion current, two-electrode voltage clamp; 100 µM): 84%
CCCCc1cn(-c2cccc(C(=O)N[C@H]3CCOC3=O)c2)nn1  inhibition (lasR; reporter gene, antagonist; 100 µM, added: OdDHL 10 nM): 36%
O=S(=O)(O)CC1CSSCC(CS(=O)(=O)O)SS1 (stereo not shown)  inhibition (DNA-binding response regulator MtrA, C-terminal domain (mtrA, Mycobacterium tuberculosis, UniProt P9WGM7); DNA binding; 100 µM): > 50%
Ic1ccc(CNC23CC4CC(CC(C4)C2)C3)s1  inhibition (Matrix protein 2; ion current, two-electrode voltage clamp; 30 µM): 72%
CCn1c2ccccc2c2cc(C(=O)c3ccc(C)c4ccccc34)ccc21  inhibition (tubulin colchicine site; [3H]colchicine binding, competition binding; purified tubulin; 5 µM): 53%
O=S(=O)(O)CCOCC1CSSCC(COCCS(=O)(=O)O)SS1 (stereo not shown)  inhibition (Response regulator PhoP (Mycobacterium tuberculosis, UniProt P71814); DNA binding; 100 µM): > 50%
Cc1ccsc1CNC12CC3CC(CC(C3)C1)C2  inhibition (Matrix protein 2; ion current, two-electrode voltage clamp; 100 µM): 71%
CCC1(CC)C2CC3CC(C2)CC1(N(C)C)C3  inhibition (Matrix protein 2; enzyme activity, inhibitor; 100 µM, pH 5.5): 24%
CCCCCc1cc(O)c2c(c1)OC(C)(C)C1CCC(C)=CC21 (single isomer, unassigned; (-))  inhibition (UGT1A9 (Homo sapiens, UniProt O60656); inhibitor; HEK293 overexpressing UGT1A9, recombinant UGT1A9 microsomes; 100 µM, added: propofol glucuronidation; baseline: no-inhibitor control): 74%
CC(C)(C)c1ncc(CNC23CC4CC(CC(C4)C2)C3)s1  inhibition (Matrix protein 2; ion current, inhibitor, TEVC; Xenopus laevis oocytes; 100 µM, 2 min, wild type): inactive
CCCc1cn(-c2ccc(C(=O)N[C@H]3CCOC3=O)cc2)nn1  inhibition (lasR; reporter gene, antagonist; 100 µM, added: OdDHL 10 nM): 46%
CS(=O)(=O)n1c(CN2C(=O)C(=O)c3ccccc32)cc2ccccc21  inhibition (Rv1885c (Mycobacterium tuberculosis, UniProt P9WIB9); enzyme activity, inhibitor; 30 µM): 70.3%

Some of these lines once more:
Cc1ccsc1CNC12CC3CC(CC(C3)C1)C2  inhibition (Matrix protein 2; ion current, two-electrode voltage clamp; 100 µM): 71%
CCC1(CC)C2CC3CC(C2)CC1(N(C)C)C3  inhibition (Matrix protein 2; enzyme activity, inhibitor; 100 µM, pH 5.5): 24%
CCCCCc1cc(O)c2c(c1)OC(C)(C)C1CCC(C)=CC21 (single isomer, unassigned; (-))  inhibition (UGT1A9 (Homo sapiens, UniProt O60656); inhibitor; HEK293 overexpressing UGT1A9, recombinant UGT1A9 microsomes; 100 µM, added: propofol glucuronidation; baseline: no-inhibitor control): 74%
